Published values gathered from unrelated publications.
Protocols differ between the studies behind these lines. ≈ marks a conversion by molar mass, not a printed value.
OPRM1: Mu-type opioid receptor (OPRM1, Homo sapiens, UniProt P35372)
UniProt P35372, sequence (whole entry, looked up): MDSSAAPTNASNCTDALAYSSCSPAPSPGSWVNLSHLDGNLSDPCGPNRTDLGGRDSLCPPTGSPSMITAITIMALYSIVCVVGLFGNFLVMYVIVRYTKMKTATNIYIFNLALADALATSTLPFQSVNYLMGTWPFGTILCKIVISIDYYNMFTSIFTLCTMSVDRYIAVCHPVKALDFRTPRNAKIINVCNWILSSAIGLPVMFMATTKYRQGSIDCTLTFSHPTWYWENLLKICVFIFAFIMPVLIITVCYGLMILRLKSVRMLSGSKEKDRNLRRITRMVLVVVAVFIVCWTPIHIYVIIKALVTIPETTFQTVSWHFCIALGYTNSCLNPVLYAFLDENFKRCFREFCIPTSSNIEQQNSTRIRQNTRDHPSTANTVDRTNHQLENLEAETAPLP
UniProt Q05655, sequence (whole entry, looked up): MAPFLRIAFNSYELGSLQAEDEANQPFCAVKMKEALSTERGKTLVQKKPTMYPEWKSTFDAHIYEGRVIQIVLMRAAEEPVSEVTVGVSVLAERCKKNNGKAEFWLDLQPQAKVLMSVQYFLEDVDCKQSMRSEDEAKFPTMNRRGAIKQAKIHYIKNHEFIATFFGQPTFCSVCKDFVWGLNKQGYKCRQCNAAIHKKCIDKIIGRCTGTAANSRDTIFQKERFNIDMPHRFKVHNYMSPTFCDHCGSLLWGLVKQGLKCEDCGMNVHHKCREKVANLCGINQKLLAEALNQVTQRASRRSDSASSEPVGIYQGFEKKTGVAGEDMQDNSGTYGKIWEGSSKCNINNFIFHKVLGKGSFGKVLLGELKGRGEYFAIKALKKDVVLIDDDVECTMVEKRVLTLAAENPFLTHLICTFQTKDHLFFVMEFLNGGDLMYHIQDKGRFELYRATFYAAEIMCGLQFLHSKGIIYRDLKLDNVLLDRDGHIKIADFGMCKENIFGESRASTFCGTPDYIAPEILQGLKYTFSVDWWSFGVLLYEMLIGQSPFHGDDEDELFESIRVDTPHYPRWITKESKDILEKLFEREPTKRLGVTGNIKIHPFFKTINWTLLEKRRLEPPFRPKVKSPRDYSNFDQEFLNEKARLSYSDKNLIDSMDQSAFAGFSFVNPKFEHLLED
UniProt Q16832, sequence (whole entry, looked up): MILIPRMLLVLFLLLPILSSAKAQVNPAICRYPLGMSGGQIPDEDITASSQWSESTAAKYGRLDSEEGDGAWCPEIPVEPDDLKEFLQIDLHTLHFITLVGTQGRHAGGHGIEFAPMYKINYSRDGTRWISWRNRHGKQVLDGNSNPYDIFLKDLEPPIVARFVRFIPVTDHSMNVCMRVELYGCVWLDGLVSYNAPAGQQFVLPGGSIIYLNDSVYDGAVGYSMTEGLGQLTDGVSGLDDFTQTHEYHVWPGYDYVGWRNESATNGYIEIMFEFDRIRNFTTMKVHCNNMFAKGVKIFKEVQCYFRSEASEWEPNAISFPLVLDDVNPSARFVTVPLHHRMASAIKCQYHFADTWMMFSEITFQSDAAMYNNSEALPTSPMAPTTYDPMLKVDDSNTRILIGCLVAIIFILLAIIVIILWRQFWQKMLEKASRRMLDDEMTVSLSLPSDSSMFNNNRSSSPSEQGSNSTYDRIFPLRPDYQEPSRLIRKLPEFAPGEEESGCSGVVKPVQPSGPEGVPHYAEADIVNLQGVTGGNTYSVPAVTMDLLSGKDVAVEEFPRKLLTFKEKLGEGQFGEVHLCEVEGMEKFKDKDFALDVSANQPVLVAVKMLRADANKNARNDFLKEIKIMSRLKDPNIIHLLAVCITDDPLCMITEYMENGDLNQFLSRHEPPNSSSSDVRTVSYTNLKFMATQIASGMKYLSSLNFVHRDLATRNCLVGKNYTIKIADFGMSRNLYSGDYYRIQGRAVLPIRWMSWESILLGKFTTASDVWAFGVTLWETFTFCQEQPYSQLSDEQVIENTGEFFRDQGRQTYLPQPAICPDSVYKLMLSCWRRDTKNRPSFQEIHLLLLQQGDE
UniProt Q9UF33, sequence (whole entry, looked up): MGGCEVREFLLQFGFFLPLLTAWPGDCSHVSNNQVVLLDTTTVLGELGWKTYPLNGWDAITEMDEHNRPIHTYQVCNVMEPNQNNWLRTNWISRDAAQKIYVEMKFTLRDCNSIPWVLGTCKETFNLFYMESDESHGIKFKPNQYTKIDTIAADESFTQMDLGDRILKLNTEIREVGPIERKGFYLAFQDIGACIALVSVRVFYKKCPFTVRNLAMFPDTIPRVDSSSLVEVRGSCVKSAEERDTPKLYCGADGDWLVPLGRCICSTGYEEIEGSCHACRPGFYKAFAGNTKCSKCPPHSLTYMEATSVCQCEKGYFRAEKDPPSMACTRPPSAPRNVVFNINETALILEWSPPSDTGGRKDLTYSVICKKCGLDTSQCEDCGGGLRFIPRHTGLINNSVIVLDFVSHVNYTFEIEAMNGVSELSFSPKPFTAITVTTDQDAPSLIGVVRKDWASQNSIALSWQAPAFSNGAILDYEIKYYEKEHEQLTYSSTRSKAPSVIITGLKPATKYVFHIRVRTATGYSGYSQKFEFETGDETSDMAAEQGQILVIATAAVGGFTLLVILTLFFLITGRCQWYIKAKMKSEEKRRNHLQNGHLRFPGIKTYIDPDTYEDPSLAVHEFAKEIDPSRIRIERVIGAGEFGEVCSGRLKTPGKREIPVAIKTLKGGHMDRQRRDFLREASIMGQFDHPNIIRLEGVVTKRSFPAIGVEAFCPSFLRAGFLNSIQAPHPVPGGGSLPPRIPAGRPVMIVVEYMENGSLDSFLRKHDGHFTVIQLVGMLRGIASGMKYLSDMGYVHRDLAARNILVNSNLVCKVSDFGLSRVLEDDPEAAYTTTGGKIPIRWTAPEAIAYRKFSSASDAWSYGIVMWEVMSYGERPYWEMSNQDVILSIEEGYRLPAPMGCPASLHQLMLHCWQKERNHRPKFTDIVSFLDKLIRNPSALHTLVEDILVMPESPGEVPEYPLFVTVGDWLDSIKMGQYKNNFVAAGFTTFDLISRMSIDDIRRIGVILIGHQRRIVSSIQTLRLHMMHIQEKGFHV
UniProt P34972, sequence (whole entry, looked up): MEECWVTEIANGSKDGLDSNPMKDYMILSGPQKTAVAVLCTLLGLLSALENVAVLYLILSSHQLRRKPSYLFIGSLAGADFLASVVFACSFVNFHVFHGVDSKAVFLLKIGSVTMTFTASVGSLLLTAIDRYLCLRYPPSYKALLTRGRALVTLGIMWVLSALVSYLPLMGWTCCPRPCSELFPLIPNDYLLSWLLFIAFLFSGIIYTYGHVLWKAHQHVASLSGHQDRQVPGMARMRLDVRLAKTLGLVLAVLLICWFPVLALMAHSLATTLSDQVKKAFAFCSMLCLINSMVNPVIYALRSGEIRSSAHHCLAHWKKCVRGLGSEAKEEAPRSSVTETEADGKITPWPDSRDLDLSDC
UniProt P36897, sequence (whole entry, looked up): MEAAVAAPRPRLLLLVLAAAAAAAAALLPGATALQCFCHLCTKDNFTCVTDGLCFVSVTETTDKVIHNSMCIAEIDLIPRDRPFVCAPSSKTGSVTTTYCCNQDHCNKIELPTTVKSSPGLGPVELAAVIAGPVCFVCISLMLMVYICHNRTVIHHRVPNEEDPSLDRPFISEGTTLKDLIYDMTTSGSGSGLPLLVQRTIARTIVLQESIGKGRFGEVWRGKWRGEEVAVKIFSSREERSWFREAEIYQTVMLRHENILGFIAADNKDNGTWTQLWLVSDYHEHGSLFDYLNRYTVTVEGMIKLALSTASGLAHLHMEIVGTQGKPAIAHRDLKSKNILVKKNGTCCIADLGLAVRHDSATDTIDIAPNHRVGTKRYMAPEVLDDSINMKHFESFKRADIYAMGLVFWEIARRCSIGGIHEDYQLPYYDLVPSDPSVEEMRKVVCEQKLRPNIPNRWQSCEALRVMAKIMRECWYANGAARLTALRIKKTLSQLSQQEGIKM

c1cncc([C@@H]2CCCN2)c1  inhibition (HTR7 (Homo sapiens, UniProt P34969); ligand displacement; 50 µM): -35.5%
COc1ccc(Nc2nn3c(-c4ccccc4)ccnc3c2C(=O)Nc2ccc(Cl)cc2)cc1  viability (Caco-2; cell growth or viability, MTT; 50 µg/mL, 48 h, serum-free): 16%
Nc1ncc(-c2nc(N3CCOCC3)nc(N3CCOCC3)n2)c(C(F)F)n1  remaining binding (FLT3 (Homo sapiens, UniProt P36888); binding, competition with immobilised ligand; 10 µM): 88%
COc1ncccc1-c1cnn2ccc(N3CCN(C(=O)OC(C)C)CC3)nc12  remaining binding (TGFBR1 (Homo sapiens, UniProt P36897); binding, competition with immobilised ligand; 1 µM): 64%
[2H]c1c([2H])c([C@]2([2H])CCCN2C(=O)C(C)(C)Oc2ccc3cn[nH]c3c2)c([2H])c([2H])c1C([2H])([2H])[2H]  remaining binding (PRKCD (Homo sapiens, UniProt Q05655); binding, competition with immobilised ligand; 1 µM): 79%
Cc1nn(C)cc1-c1nc2c(N3CCN(Cc4ccc(Cl)cc4)CC3)c(Cl)cnc2[nH]1  remaining binding (EPHA6 (Homo sapiens, UniProt Q9UF33); binding, competition with immobilised ligand; 1 µM): 100%
CC(C)CC(=O)OC[C@H]1O[C@@](C#N)(c2ccc3c(N)ncnn23)[C@H](O)[C@@H]1O  inhibition (ADRB2 (Homo sapiens, UniProt P07550); cell-free assay; 20 µM): 4%
C#Cc1n[nH]c2c(-c3cn(C(C)c4ccccn4)c(=O)[nH]c3=O)cc(F)cc12 (stereo not shown)  inhibition (DDR2 (Homo sapiens, UniProt Q16832); enzyme activity, inhibitor; 1 µM): -4%
CN1CCC[C@H]1c1cccnc1  inhibition (OPRM1; ligand displacement; 50 µM): 19.5%
COc1ccc(Nc2nn3c(-c4ccccc4)ccnc3c2C(=O)Nc2ccccc2)cc1  viability (Caco-2; cell growth or viability, MTT; 12.5 µg/mL, 48 h, serum-free): 75.7%
Cc1sc2c(c1C)C(c1ccc(Cl)cc1)=N[C@@H](CC(=O)OC(C)(C)C)c1nnc(C)n1-2  viability (OCI-Ly1; cell growth or viability, ATP luminescence; 0.1 µM, 5 days): 47%
CCCCC/C=C\C/C=C\C/C=C\Cc1ccccc1CCCC(=O)N[C@H](C)CO  Emax (CNR2 (Homo sapiens, UniProt P34972); β-arrestin recruitment, agonist): 100%
C[C@H]1CN(CCCc2ccccc2)CCN1c1cccc(O)c1  Emax (OPRM1; cAMP, agonist; OPRM1): 0%
CCN(CC)CCCC[C@H](NC(=O)[C@H](CC(C)C)NC(=O)[C@H](C)NC(=O)[C@H](Cc1ccccc1)NC(=O)c1ccc(C(C)(C)C)cc1)C(=O)N[C@@H](CO)C(=O)OC  ΔTm (Bromodomain-containing protein 4, BD1 (BRD4, Homo sapiens, UniProt O60885); thermal stability, DSF; 25 µM): 0.88 °C
N.N.[Cl][Pt][Cl]  inhibition (Toledo; cell growth or viability, ATP luminescence; 10 µM, 72 h): 100%
CC[C@H](C)[C@H](NC(=O)[C@H](Cc1ccccc1)NC(=O)[C@H](CCC(=O)O)NC(=O)[C@H](CCCNC(=N)N)NC(=O)[C@H](C)NC(=O)[C@H](C)NC(=O)[C@H](CCC(N)=O)NC(=O)[C@H](CCC(=O)O)NC(=O)[C@H](CCC(=O)O)NC(=O)[C@H](CC(C)C)NC(=O)[C@H](Cc1ccc(O)cc1)NC(=O)[C@H](CO)NC(=O)[C@H](CO)NC(=O)[C@@H](NC(=O)[C@H](CC(=O)O)NC(=O)[C@H](CO)NC(=O)[C@@H](NC(=O)[C@H](Cc1ccccc1)NC(=O)[C@@H](NC(=O)CNC(=O)[C@H](CCC(=O)O)NC(=O)[C@H](C)NC(=O)CCc1c[nH]cn1)[C@@H](C)O)[C@@H](C)O)C(C)C)C(=O)N[C@@H](C)C(=O)N[C@@H](Cc1c[nH]c2ccccc12)C(=O)N[C@@H](CC(C)C)C(=O)N[C@H](C(=O)N[C@@H](CCCNC(=N)N)C(=O)NCC(=O)N[C@@H](CCCNC(=N)N)C(=O)N[C@@H](CCCCNC(=O)COCCOCCNC(=O)COCCOCCNC(=O)CC[C@H](NC(=O)CCCCCCCCCCCCCCCCC(=O)O)C(=O)O)C(=O)NCC(=O)NCC(=O)N[C@@H](CO)C(=O)N[C@@H](CCCCNc1c(NCCCCCN(O)C(=O)CCC(=O)NCCCCCN(O)C(=O)CCC(=O)NCCCCCN(O)C(C)=O)c(=O)c1=O)C(=O)O)C(C)C  clearance (rat, plasma; intravenous, 20 nmol/kg): 0.117 mL/min/kg
Cc1ncsc1-c1ccc([C@H](CC(=O)N2CCN(c3ccc(C#Cc4ccc(C(=O)N5CCC(n6cc(-c7ccc8c(c7)CCN8C(=O)Cc7cccc(OC(F)(F)F)c7)c7c(N)ncnc76)CC5)cc4)cn3)CC2)NC(=O)[C@@H]2C[C@@H](O)CN2C(=O)[C@@H](NC(=O)C2(F)CC2)C(C)(C)C)cc1  Dmax (RIPK1 (Homo sapiens, UniProt Q13546); protein level, degrader, western blot; MOLM-14; 0.2 µM): 99%
Nc1c(Br)cc(Br)cc1CN[C@H]1CC[C@H](O)CC1  inhibition (Potassium/sodium hyperpolarization-activated cyclic nucleotide-gated channel 1 (Homo sapiens, UniProt O60741); ion current, inhibitor; 3 µM): -0.961%
C#Cc1ccc2c(c1)C(c1ccccn1)=NCc1c(-c3cnco3)ncn1-2  kinetic solubility (water; 10 min, 37 °C): 174 µg/mL (≈ 495 µM)
